Measured values collected from several papers.
Protocols differ between the studies behind these lines.
Organism: Klebsiella pneumoniae

SMILES | assay | test system | conditions | MIC
CC1(C)[C@H](NC(=O)/C(=N\OCc2cc(=O)c(O)cn2O)c2csc(N)n2)C(=O)N1OS(=O)(=O)O | agar dilution | 2146 NDM-1 |  | 1 µg/mL
N=C(N)NCCC[C@@H]1NC(=O)[C@H](CCCNC(=N)N)NC(=O)[C@@H](CCCNC(=N)N)NC(=O)[C@H](C(c2ccccc2)c2ccccc2)NC(=O)[C@H](C(c2ccccc2)c2ccccc2)NC(=O)[C@H](C(c2ccccc2)c2ccccc2)NC(=O)[C@H](CCCNC(=N)N)NC1=O |  | ATCC 700603, ESBL SHV-18 |  | 64 µg/mL
CN[C@@H]1[C@H](O)[C@H](NC)[C@H]2O[C@]3(O)[C@H](O[C@@H]2[C@H]1O)O[C@H](C)C[C@H]3NC(=O)Cc1cc(Cl)ccn1 | microbial growth, broth dilution | ATCC33495 |  | > 200 µg/mL
CCCCCCCC(=O)N[C@@H](CCN)C(=O)N[C@H](C(=O)N[C@@H](CCN)C(=O)N[C@H]1CCNC(=O)[C@H]([C@@H](C)O)NC(=O)[C@H](CCN)NC(=O)[C@H](CCN)NC(=O)[C@H](CCC(C)C)NC(=O)[C@@H](Cc2ccccc2)NC(=O)[C@H](CCN)NC1=O)[C@@H](C)O | broth microdilution | ATCC 19606 |  | < 0.125 µg/mL
C#CCOc1ccc(CN[C@@]2(C)C[C@H](O[C@H]3[C@H](Oc4c5cc6cc4Oc4ccc(cc4Cl)[C@@H](O)[C@@H](NC(=O)[C@@H](CC(C)C)NC)C(=O)N[C@@H](CC(N)=O)C(=O)N[C@H]6C(=O)N[C@H]4C(=O)N[C@H](C(=O)N[C@H](C(=O)NCC(N)=O)c6cc(O)cc(O)c6-c6cc4ccc6O)[C@H](O)c4ccc(c(Cl)c4)O5)O[C@H](CO)[C@@H](O)[C@@H]3O)O[C@@H](C)[C@H]2O)cc1OC | broth microdilution | ATCC 27736, cation-adjusted Mueller-Hinton broth | 18 to 20 h, 37 °C, 0.002% polysorbate 80 | > 128 µg/mL
C=CCO/N=C(\C(=O)N[C@@H]1C(=O)N(OS(=O)(=O)O)C1(C)C)c1csc(N)n1 | agar dilution | 2146, NDM-1 |  | 4 µg/mL
CC[C@H](C)[C@H](NC(=O)[C@@H](CCCNC(=N)N)NC(=O)[C@H](CCCNC(=N)N)NC(=O)[C@@H]1CCCN1C(=O)[C@@H]1CCCN1C(=O)[C@H](CCCNC(=N)N)NC(=O)[C@@H]1CCCN1C(=O)[C@H](CCCNC(=N)N)NC(=O)[C@@H]1CCCN1C(=O)[C@H](CC(C)C)NC(=O)[C@H](Cc1ccc(O)cc1)NC(=O)[C@H](Cc1ccc(O)cc1)NC(=O)[C@@H]1CCCN1C(=O)[C@H](CCCCN)NC(=O)[C@H](CC(=O)O)NC(=O)[C@@H](N)C(C)C)C(=O)N[C@@H](Cc1ccc(O)cc1)C(=O)N[C@@H](CC(N)=O)C(=O)N[C@H](CCCNC(=N)N)C(N)=O | broth microdilution | DSM 681 | 18 h, 37 °C, 25% MHB2 | 8 µg/mL
COc1ccc2ccc(O)c(/C=N/[C@H]3CCCC[C@H]3/N=C/c3cc(C)ccc3O)c2c1 | bacterial growth, broth microdilution | carbapenem-resistant |  | > 40 µM
CC[C@H](C)[C@H](NC(=O)[C@@H](CCCNC(=N)N)NC(=O)[C@H](CCCNC(=N)N)NC(=O)[C@@H]1CCCN1C(=O)[C@@H]1CCCN1C(=O)[C@H](CCCNC(=N)N)NC(=O)[C@@H]1CCCN1C(=O)[C@H](CCCNC(=N)N)NC(=O)[C@@H]1CCCN1C(=O)[C@H](CC(C)C)NC(=O)[C@H](Cc1ccc(O)cc1)NC(=O)[C@H](CCCNC(=N)N)NC(=O)[C@@H]1CCCN1C(=O)[C@H](CCCCN)NC(=O)[C@H](CC(=O)O)NC(=O)[C@@H](N)C(C)C)C(=O)N[C@@H](Cc1ccc(O)cc1)C(=O)N[C@@H](CC(N)=O)C(=O)N[C@H](CCCNC(=N)N)C(N)=O | broth microdilution | DSM 681 | 18 h, 37 °C, 25% MHB2 | 8 µg/mL
CC[C@H](C)[C@H](NC(=O)CNC(=O)[C@H](CC(=O)O)NC(=O)[C@H](CCCNC(=N)N)NC(=O)[C@@H](NC(=O)[C@H](Cc1c[nH]cn1)NC(=O)[C@H](CCC(N)=O)NC(=O)CNC(=O)[C@@H](NC(=O)[C@H](CCCNC(=N)N)NC(=O)[C@H](CCC(=O)O)NC(=O)[C@@H](NC(=O)[C@H](CCCCN)NC(=O)[C@H](CCCCN)NC(=O)[C@H](Cc1ccccc1)NC(=O)[C@@H](NC(=O)[C@H](CCCCN)NC(=O)[C@H](Cc1c[nH]c2ccccc12)NC(=O)[C@@H](N)CCCCN)[C@@H](C)CC)[C@@H](C)CC)C(C)C)C(C)C)C(=O)N[C@H](C(=O)N[C@@H](CCCCN)C(=O)N[C@@H](C)C(=O)NCC(=O)N[C@@H](CO)C(=O)N[C@@H](C)C(=O)N[C@H](C(=O)N[C@@H](CCC(N)=O)C(=O)N[C@H](C(=O)N[C@H](C(=O)NCC(=O)N[C@@H](CCC(N)=O)C(=O)N[C@@H](C)C(=O)N[C@@H](C)C(=O)N[C@@H](C)C(=O)N[C@H](C(=O)N[C@@H](C)C(=O)N[C@@H](CCCCN)C(N)=O)[C@@H](C)CC)C(C)C)C(C)C)C(C)C)[C@@H](C)CC | bacterial growth, broth microdilution | cation-adjusted Mueller Hinton broth | 18 h, 37 °C | ≤ 0.062 µM

Repeated from above:
SMILES | assay | test system | conditions | MIC
COc1ccc2ccc(O)c(/C=N/[C@H]3CCCC[C@H]3/N=C/c3cc(C)ccc3O)c2c1 | bacterial growth, broth microdilution | carbapenem-resistant |  | > 40 µM
